Values quoted from earlier work as cited in several papers.
Compare with care: the assays were run in different laboratories. “And” joins repeats or separate records; there may be more than shown. ± marks the error that the study gave.

CCCCCC(=O)NC(CC(=O)N(CC)CC)C(=O)NC(Cc1ccc(F)cc1)C(=O)NC(Cc1ccc(F)cc1F)C(=O)C1(C)CO1 (stereo not shown)  CC50 (HepG2): > 20 µM
Cc1onc(-c2ccc(F)cc2)c1C(=O)N[C@H](C(=O)Nc1cccc(C(N)=O)c1)c1ccc(OCc2ccccc2)cc1  CC50 (HeLa; cytotoxicity): > 50 µM
CCn1c(C)c(CC(=O)N[C@@H](Cc2ccccc2)C(=O)N(C)c2cccc(F)c2)c2ccccc21  CC50 (TZM-GFP): 20 ± 2 µM
CCCCCC(=O)N[C@@H](Cc1c[nH]c2ccccc12)C(=O)N[C@@H](CCCC)C(=O)N[C@@H](CC(C)C)C(=O)[C@@]1(C)CO1  CC50 (HepG2 cells; cell viability): 0.0032 ± 0.0013 µM
CN(C(=O)[C@H](Cc1ccccc1)NC(=O)Cc1c[nH]c2ccc(O)cc12)c1ccc(Cl)cc1  CC50 (TZM-GFP): > 100 µM
CCOC(=O)C(c1cc(Cl)c2cccnc2c1O)c1c[nH]c2ncccc12 (stereo not shown)  IC50 (COLO 205; cytotoxicity): 8.84 µM and 7.42 µM and 8.05 µM
O=C1NC(=O)/C(=C/c2ccc3ncnc(N4CCC(F)CC4)c3n2)S1  efflux ratio (Caco-2): 1.5 to 1.9
CCn1c(C)c(CC(=O)N[C@@H](Cc2ccccc2)C(=O)N(C)c2ccccc2)c2ccccc21  CC50 (TZM-GFP): 21 ± 0.7 µM
Oc1c(Cc2c[nH]c3ncccc23)cc(Cl)c2cccnc12  IC50 (COLO 205; cytotoxicity): 40.4 µM and 39.4 µM and 36.5 µM
CCCCCC(=O)N[C@@H](Cc1ccccc1)C(=O)N[C@@H](CCCC)C(=O)N[C@@H](CC(C)C)C(=O)[C@@]1(C)CO1  CC50 (HepG2 cells; cell viability): 0.022 ± 0.008 µM
COC1=CC(c2ccc[nH]2)=NC1=CNC12CC3CC(CC(C3)C1)C2.Cl  IC50 (HepG2; cytotoxicity): 1.2 µg/mL
Cc1c(CC(=O)N[C@@H](Cc2ccccc2)C(=O)N(C)c2ccc(Cl)cc2)c2ccccc2n1C(C)C  CC50 (TZM-GFP): 14 ± 2 µM
Oc1c(Cc2c[nH]c3ccccc23)cc(Cl)c2cccnc12  IC50 (COLO 205; cell viability): 13.1 µM
COC1=CC(c2ccc[nH]2)=NC1=CNC(C)(C)C  IC50 (HepG2; cytotoxicity): 19.1 µM
CCCCCC(=O)N[C@@H](Cc1ccc(NC(=O)OC(C)(C)C)cc1)C(=O)N[C@@H](CCCC)C(=O)N[C@@H](CC(C)C)C(=O)[C@@]1(C)CO1  CC50 (HepG2 cells; cell viability): 0.08 ± 0.027 µM
Cc1c(CC(=O)N[C@@H](Cc2ccccc2)C(=O)N(C)c2ccccc2)c2ccccc2n1C(C)C  CC50 (TZM-GFP): 16 ± 1 µM
Oc1c(C(c2ccccc2)c2c[nH]c3ccccc23)cc(Cl)c2cccnc12 (stereo not shown)  IC50 (COLO 320 ABCB1-resistant colon; cytotoxicity): 2.78 µM and 2.55 µM and 2.84 µM
COc1ccc(Nc2nc(Nc3ccc(OCC[18F])cc3)ncc2Br)cc1  tissue uptake (S180 tumour-bearing mice, bone; intravenous, 5 min): 1.88 ± 0.13 %ID/g
Oc1c(Br)cc(Br)c2nc3cc(Cl)ccc3nc12  hemolysis (human red blood cells; 200 µM): ≤ 1%
CCOC(=O)C(c1ccc2ccccc2c1O)c1c[nH]c2ccccc12 (stereo not shown)  cytotoxicity (COLO 205 colon adenocarcinoma; concentration not given): no effect
CN(C(=O)[C@H](Cc1ccccc1)NC(=O)Cc1c[nH]c2ccc(O)cc12)c1ccccc1  CC50 (TZM-GFP): 55 ± 2 µM
COc1cc2c(cc1OC)C(c1c[nH]c3ccccc13)NCC2 (stereo not shown)  IC50 (COLO 320 ABCB1-resistant colon; cytotoxicity): 60.4 µM
COC1=CC(c2ccc[nH]2)=NC1=CNC1CCCCCC1.Cl  IC50 (HepG2; cytotoxicity): 3.3 µg/mL
CCCCCC(=O)N[C@H](C(=O)N[C@@H](CCCC)C(=O)N[C@@H](CC(C)C)C(=O)[C@@]1(C)CO1)C(C)C  CC50 (HepG2 cells; cell viability): 0.134 ± 0.087 µM
CCOC(=O)C(c1cc(Cl)c2cccnc2c1O)c1c[nH]c2ccccc12 (stereo not shown)  IC50 (COLO 205; cell viability): 4.88 µM

Repeated from above:
Oc1c(C(c2ccccc2)c2c[nH]c3ccccc23)cc(Cl)c2cccnc12 (stereo not shown)  IC50 (COLO 320 ABCB1-resistant colon; cytotoxicity): 2.78 µM and 2.55 µM and 2.84 µM
CCCCCC(=O)NC(CC(=O)N(CC)CC)C(=O)NC(Cc1ccc(F)cc1)C(=O)NC(Cc1ccc(F)cc1F)C(=O)C1(C)CO1 (stereo not shown)  CC50 (HepG2): > 20 µM
